Experimental data of several laboratories.
Lines come from different studies, so protocols differ. Values joined by “and” are separate records of one study, mostly repeats; a detail may differ. Numbers after ± are the reported error. Ends that are not written are not given here.
Spike glycoprotein: Spike glycoprotein (Severe acute respiratory syndrome coronavirus 2, UniProt P0DTC2)
rep main protease: Replicase polyprotein 1ab, main protease (rep, Severe acute respiratory syndrome coronavirus 2, UniProt P0DTD1)

Substance	tested on	assay	system	conditions	scale	quantity	value
CCN1CCN(c2cc(C)c3cc(NC(=O)c4cccc(Cl)c4)ccc3n2)CC1	SARS-CoV-2	cytopathic effect, cell-based CPE	USA_WA1/2020	round 1, 5-point dilution	–	AC50	14100 nM
RENNRVVISSDVLVN	human CD4 T cells	AIM	peptide	–	–	responding donors	33%
Cc1cc(/C=C/C#N)cc(C)c1Nc1ccnc(Nc2ccc(C#N)cc2)n1	HIV-1	viral replication, single-round infection	RT mutant K101E/M184I	–	–	EC50	0.7 ± 0.1 nM
Tubeimoside I	Spike glycoprotein	biolayer interferometry	–	–	–	Kd	58000 nM
NPVLPFNDGVYFAST	human CD4 T cells	AIM	peptide	–	–	responding donors	9%
CSc1nnc(CC2CCN(Cc3cc(C(C)(C)C)[nH]n3)CC2)n1C	Lassa mammarenavirus	viral replication	Huh-7	10 µM, 72 h	–	remaining activity	30%
ω-agatoxin IVA	–	cAMP signalling, high-content microscopy	DRG neurons, rat, spinal cord injury	dose not given, normalised 0 to 1, unit not given, together with: forskolin, DAMGO 0.03	reference: DAMGO maximum, higher = stronger inhibition	PKA-RII phosphorylation inhibition	1.05 and 0.773 and 0.987
Cc1nc2n(n1)CC(=O)N[C@@H](C(C)C)CN(C(=O)c1ccc3[nH]ccc3c1)CC(=O)N[C@@H](CC(C)C)c1nc(cs1)C(=O)N[C@H]2Cc1ccccc1	Lassa mammarenavirus	viral replication	Huh-7	10 µM, 72 h	–	remaining activity	112%
KNTQEVFAQVKQIYK	human CD4 T cells	AIM	peptide	–	–	responding donors	8%
COP(=O)(OC)OC=C(Cl)Cl	rat CYP1A	ethoxyresorufin O-deethylation	liver microsomes	concentration not given	–	Vmax	0.24 ± 0.06 nmol/min/mg protein
STECSNLLLQYGSFC	human CD4 T cells	AIM	peptide	–	–	responding donors	8%
Cc1ccc(-c2cccc(CN3CCCC(c4nc5ccc(C)cc5c(=O)[nH]4)C3)c2)c(C)c1 (stereo not drawn)	SARS-CoV-2	cytopathic effect	USA_WA1/2020	round 2, 5-point	–	maximum response	101%
CCCC(=O)OCSc1ccccc1C(=O)NCCC(N)=O	HIV-1	viral replication	human PBMC, subtype F 93BR020, dual-tropic clinical isolate	–	–	EC50	2750 ± 1070 nM
Spike receptor binding domain (SARS-CoV-2)	ACE2 recombinant ectodomain 18-740 (Homo sapiens, UniProt Q9BYF1)	SPR	–	–	–	koff	0.038 s⁻¹
p2o (Trametes ochracea, UniProt Q7ZA32)	CN(C)c1ccc2nc3ccc(N(C)C)c([N+](=O)[O-])c3[s+]c2c1	steady-state kinetics	–	pH 6.5, 22 °C, apparent	–	kcat/Km	13000 M⁻¹ s⁻¹
COc1cccc2c1OCCCn1cc(nn1)CCN(Cc1ccc(C)s1)CCNC(=O)[C@H](Cc1ccccc1)NC2=O	Lassa mammarenavirus	viral replication	Huh-7	10 µM, 72 h	–	remaining activity	56%
TFKCYGVSPTKLNDL	human CD4 T cells	AIM	peptide	–	–	responding donors	8%
Aprotinin	rep main protease	enzyme activity, Gaussia luciferase reporter	SARS-CoV-2	20 µM	–	inhibition	2.55%
VPLHGTIL	–	AIM	peptide, CD8+ T cells from PBMC, human donors	HLA-B*07:02 restricted, unit not given	reference: positive over tested donors	frequency of responding donors	25
COc1cccc(-c2ccccc2NC(=O)C2CCN(Cc3ccccc3F)CC2)c1	SARS-CoV-2	cytopathic effect, cell-based CPE	USA_WA1/2020	–	–	AC50	14100 nM
QPLRKLCILHRNPGRCYQKIPAFYYNQKKKQCEGFTWSGCGGNSNRFKTIEECRRTCIRK (dendrotoxin I; ends and bridges not checked; cysteine pairing not given here; sequence looked up)	maxi-KCa channel, rat muscle	channel block, planar bilayer single-channel	–	concentration not given, nearly blocked state, together with: BPTI	–	dwell time, double occupancy	~1 s
O=C1Nc2ccc(Cl)cc2[C@@](C#CC2CC2)(C(F)(F)F)O1	HIV-1	viral replication, single-round infection	RT mutant V111A	–	–	EC50	0.2 ± 0.04 nM
CN(C)c1ccc(-c2nc(-c3cccs3)c(-c3cccs3)[nH]2)cc1	SARS-CoV-2	cytopathic effect	USA_WA1/2020	round 1, 5-point	–	efficacy	45.2%
BKRF4 fragment W84Y (Epstein-Barr virus)	H2A/H2B dimer (Homo sapiens)	ITC	–	25 °C, NaCl 0.5 M	–	Kd	2500 nM
Cc1cc(/C=C/C#N)cc(C)c1-n1cnc2cnc(Nc3ccc(/C=C/C#N)cc3)nc21	HIV-1	viral replication, single-round infection	RT mutant V106A/L234I	–	–	EC50	36.6 ± 2.4 nM
Nc1ncnc2c([C@@H]3N[C@H](CO)[C@@H](O)[C@H]3O)c[nH]c12	Marburg virus	antibody staining	HeLa, Musoke	12.5 µM	–	antigen-positive cells	0.5% and 4%

Substance	tested on	assay	system	conditions	scale	quantity	value
CCOP(=S)(OCC)Oc1nc(Cl)c(Cl)cc1Cl	rat CYP2C	tolbutamide hydroxylation	liver microsomes	concentration not given	–	Vmax	1.68 ± 0.31 nmol/min/mg protein
Cn1c(Cn2ccc(C(F)(F)F)c(Oc3cc(Cl)cc(C#N)c3)c2=O)n[nH]c1=O	HIV-1	viral replication, single-round infection	RT mutant V106A/L234I	–	–	EC50	> 100 nM
Cc1ccc(Nc2ccnc(N3CCC(C(=O)NCCCc4ccccc4)CC3)n2)cc1	SARS-CoV-2	cytopathic effect	USA_WA1/2020	round 2, 5-point	–	efficacy	54%
LPYAK	–	DSC	peptide, 6/4 SOPC/cholesterol bilayers	5 mol%, pH 7.40, SOPC chain melting transition	–	transition enthalpy	0.3 kcal/mol
COc1cccc(-c2ccc(CN3CCCC(c4nc5ccc(C)cc5c(=O)[nH]4)C3)cc2)c1 (stereo not drawn)	SARS-CoV-2	cytopathic effect, cell-based CPE	USA_WA1/2020	round 2, 5-point dilution	–	AC50	4470 nM
Cc1cn([C@H]2C[C@H](N=[N+]=[N-])[C@@H](CO)O2)c(=O)[nH]c1=O	HIV-1	viral replication	human PBMC, subtype E CMU02, CCR5-tropic clinical isolate	–	–	EC50	4.8 ± 3.18 nM
CCc1c(C(=O)C(N)=O)c2c(OCC(=O)O)cccc2n1Cc1ccccc1	–	–	TN population, mouse	intravenous, 90 µg/mouse, 24 h, preincubated with venom, together with: Daboia russelii venom 2.5 x LD50	–	survival	100%
CC(C)Nc1ccnc(NCc2cccnc2Oc2ccc(F)cc2F)n1	Lassa mammarenavirus	viral replication	Huh-7	10 µM, 72 h	–	remaining activity	34%
CNC(=O)[C@@H](NC(=O)[C@H](CC(C)C)[C@H](O)C(=O)NO)C(C)(C)C	Daboia russelii venom proteases (SVMP)	protease activity, inhibitor	KA population	0.001 µM, together with: azocasein substrate	reference: venom alone	remaining activity	98% and 96.3% and 93%
Cc1cc(/C=C/C#N)cc(C)c1Nc1nc(Nc2ccc(/C=C/C#N)cc2)ncc1N	HIV-1	viral replication, single-round infection	RT mutant D67E	–	–	EC50	3.4 ± 0.5 nM
CCOc1ccc(NC(=O)c2cnn(-c3ccc(C)c(Cl)c3)c2C2CCNCC2)cc1	SARS-CoV-2	cytopathic effect	USA_WA1/2020	round 1, 5-point	–	efficacy	99.7%
Cc1cc(C(C)(C)CC(C)(C)C)ccc1OCCOCC[N+](C)(C)Cc1ccccc1	HeLa	Ebola VLP entry	–	–	–	IC50	3850 nM
bivalirudin	rep main protease	enzyme activity, mKate2 fluorescence reporter	SARS-CoV-2	20 µM	–	inhibition	-0.221%
CCN(CC)Cc1cc(Nc2ccnc3cc(Cl)ccc23)ccc1O	SARS-CoV-2	cytopathic effect, cell-based CPE	USA_WA1/2020	round 2, 5-point dilution	–	maximal response	89%
FPQSAPHGV	–	AIM	peptide, CD8+ T cells from PBMC, human donors	HLA-B*07:02 restricted, unit not given	reference: positive over tested donors	frequency of responding donors	40
Cc1cc(/C=C/C#N)cc(C)c1-n1cnc2cnc(Nc3ccc4cc(C#N)ccc4c3)nc21	HIV-1	viral replication, single-round infection	RT mutant V106A/L234I	–	–	EC50	79.1 ± 10.4 nM
COc1ccc2cc3[n+](cc2c1OC)CCc1cc2c(cc1-3)OCO2	SARS-CoV-2 spike protein	–	Vero C1008	5 µg/mL	–	inhibition	86.6 ± 1.5%
FolB (Mycobacterium tuberculosis, UniProt P9WNC5)	Nc1nc2c(c(=O)[nH]1)N=C([C@H](O)[C@@H](O)CO)CN2	steady-state kinetics	–	pH 7, 25 °C	–	kcat/Km	38000 ± 6900 M⁻¹ s⁻¹
YCIDGALLTKSSEYK	human CD4 T cells	AIM	peptide	–	–	responding donors	7%
C[C@@H](C1=C(CCN(C)C)Cc2ccccc21)c1ccccn1.O=C(O)/C=C\C(=O)O	HeLa	Ebola VLP entry	–	–	–	maximal inhibition	90%
tricresyl phosphate	Voltage-gated inwardly rectifying potassium channel KCNH2 (KCNH2, Homo sapiens, UniProt Q12809)	thallium influx, inhibitor, primary qHTS	hERG-transduced cells	two runs	–	IC50	14000 ± 9000 nM
bavachinin	Spike glycoprotein	binding	–	1:1 binding model	–	Kd	11800 nM
NC(=O)CCNC(=O)c1ccccc1S	HIV-1	viral replication	human PBMC, subtype F 93BR029, CCR5-tropic clinical isolate	–	–	EC50	3380 ± 850 nM
COc1ccc(C[C@@H]2NC(=O)[C@@H](NC(=O)c3ccc(S(C)(=O)=O)cc3)Cc3ccc(cc3)OC[C@H](CC(C)C)NC(=O)CN(CC3CC3)C(=O)[C@@H](C)NC2=O)cc1	Lassa mammarenavirus	viral replication	Huh-7	10 µM, 72 h	–	remaining activity	52%
PaFS D92A (Diaporthe amygdali)	CC(C)=CCC/C(C)=C/COP(=O)(O)OP(=O)(O)O	steady-state kinetics	–	–	–	kcat	0.26 ± 0.03 s⁻¹

Excerpt of the above:
Substance	tested on	assay	system	conditions	scale	quantity	value
Cc1cc(/C=C/C#N)cc(C)c1-n1cnc2cnc(Nc3ccc(/C=C/C#N)cc3)nc21	HIV-1	viral replication, single-round infection	RT mutant V106A/L234I	–	–	EC50	36.6 ± 2.4 nM
Nc1ncnc2c([C@@H]3N[C@H](CO)[C@@H](O)[C@H]3O)c[nH]c12	Marburg virus	antibody staining	HeLa, Musoke	12.5 µM	–	antigen-positive cells	0.5% and 4%
CCOP(=S)(OCC)Oc1nc(Cl)c(Cl)cc1Cl	rat CYP2C	tolbutamide hydroxylation	liver microsomes	concentration not given	–	Vmax	1.68 ± 0.31 nmol/min/mg protein
Cn1c(Cn2ccc(C(F)(F)F)c(Oc3cc(Cl)cc(C#N)c3)c2=O)n[nH]c1=O	HIV-1	viral replication, single-round infection	RT mutant V106A/L234I	–	–	EC50	> 100 nM
Cc1ccc(Nc2ccnc(N3CCC(C(=O)NCCCc4ccccc4)CC3)n2)cc1	SARS-CoV-2	cytopathic effect	USA_WA1/2020	round 2, 5-point	–	efficacy	54%
LPYAK	–	DSC	peptide, 6/4 SOPC/cholesterol bilayers	5 mol%, pH 7.40, SOPC chain melting transition	–	transition enthalpy	0.3 kcal/mol
